Assay results collected from several papers.
Each line is one published result; not all experiments were run side by side.
UniProt Q15370, sequence (whole entry, looked up): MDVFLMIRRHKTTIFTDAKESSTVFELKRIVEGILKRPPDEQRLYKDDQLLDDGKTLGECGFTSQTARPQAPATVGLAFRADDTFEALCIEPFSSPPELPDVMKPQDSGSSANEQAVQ

Structure (SMILES)	target or system	test	system	setting	scale	quantity	result
COc1cc2c(Oc3ccc4[nH]c(C)cc4c3F)ccnc2cc1OCC1(N)CC1	–	–	paediatric refractory sarcoma patients	10 mg	–	grade 3 bone pain	0%
CC[C@H](C)[C@H](NC(=O)[C@H](C)NC(=O)[C@H](CCCCN)NC(=O)[C@H](CC(C)C)NC(=O)[C@H](C)NC(=O)[C@@H](NC(=O)[C@H](Cc1c[nH]cn1)NC(=O)[C@H](CC(C)C)NC(=O)[C@@H](NC(=O)[C@@H](NC(=O)[C@H](CCCCN)NC(=O)[C@H](C)NC(=O)[C@H](C)NC(=O)[C@H](CO)NC(=O)[C@H](CCCCN)NC(=O)[C@H](Cc1ccccc1)NC(=O)[C@@H](NC(=O)[C@H](CCCCN)NC(=O)[C@H](CC(C)C)NC(=O)[C@H](Cc1ccccc1)NC(=O)[C@H](CO)NC(=O)[C@H](CCCCN)NC(=O)[C@H](Cc1c[nH]c2ccccc12)NC(=O)[C@H](CCCCN)NC(C)=O)[C@@H](C)O)[C@@H](C)O)C(C)C)[C@@H](C)O)C(=O)N[C@@H](CO)C(=O)N[C@@H](CO)C(N)=O	Streptococcus pyogenes	–	erythromycin-resistant	geometric mean of 19 strains	–	MIC	23 µg/mL
C[C@H]1CN(c2n[nH]c3nc(N[C@H]4CC[C@H](NS(=O)(=O)CCC(F)(F)F)CC4)ncc23)CCO1	Elongin-B (Homo sapiens, UniProt Q15370)	Kinobeads competition, measured: TCEB2	–	0.8 µM, unit not given	relative to: vehicle	remaining binding	1.39
CC(C)C[C@@H]1NC(=O)[C@H](Cc2ccccc2)NC(=O)[C@H](Cc2ccc(O)cc2)NC(=O)[C@H](CC(C)C)NC(=O)[C@H](CCC(=O)O)NC(=O)[C@H](Cc2ccccc2)NC(=O)[C@H](CCCNC(=N)N)NC(=O)[C@H](CCC(N)=O)NC(=O)[C@H](CC(C)C)NC(=O)[C@H](CC(=O)O)NC(=O)[C@@H]2CCCN2C(=O)[C@H](CCCCN)NC(=O)[C@H](C(C)C)NC(=O)[C@H](CC(N)=O)NC(=O)[C@H](Cc2ccc(O)cc2)NC(=O)[C@H]([C@@H](C)O)NC(=O)[C@@H](N)CSSC[C@@H](C(=O)O)NC(=O)[C@H]([C@@H](C)O)NC(=O)[C@H](C(C)C)NC(=O)[C@H]([C@@H](C)O)NC(=O)CNC1=O	Pseudomonas fluorescens	broth dilution	CGMCC strain	24 h	–	MIC	> 40 µM
CC(C)[C@H](NC(=O)[C@H](CCCNC(=N)N)NC(=O)[C@H](Cc1c[nH]c2ccccc12)NC(=O)[C@H](CCCNC(=N)N)NC(=O)[C@H](Cc1c[nH]c2ccccc12)NC(=O)[C@H](Cc1c[nH]c2ccccc12)NC(=O)[C@H](Cc1c[nH]c2ccccc12)NC(=O)[C@H](CCCNC(=N)N)NC(=O)[C@H](Cc1c[nH]c2ccccc12)NC(=O)[C@@H](N)CCCNC(=N)N)C(N)=O	Candida albicans	broth microdilution	SP3931, RPMI 1640-MOPS	48 h, 30 °C	–	MIC	8 µM
CC[C@H](C)[C@H](NC(=O)[C@H](Cc1c[nH]c2ccccc12)NC(=O)[C@@H](NC(=O)[C@@H](NC(=O)[C@@H](NC(=O)[C@H](CCCNC(=N)N)NC(=O)[C@@H](N)CCCNC(=N)N)[C@@H](C)CC)[C@@H](C)O)[C@@H](C)CC)C(=O)N[C@H](C(=O)N[C@H](C(=O)N[C@@H](CCCNC(=N)N)C(=O)N[C@@H](CCCNC(=N)N)C(N)=O)[C@@H](C)CC)[C@@H](C)O	Candida parapsilosis	–	CGMCC 2.399	48 h, 37 °C	–	MIC	2 µM
COc1c(CCC[P+](c2ccccc2)(c2ccccc2)c2ccccc2)cc2c(c1OC)OCO2.[I-]	SN12C	SRB	–	–	–	TGI	-4.98 log M
CC(C)C[C@H](NC(=O)[C@H](CCCNC(=N)N)NC(=O)[C@H](Cc1c[nH]c2ccccc12)NC(=O)[C@H](CCCNC(=N)N)NC(=O)[C@H](Cc1c[nH]c2ccccc12)NC(=O)[C@H](Cc1c[nH]c2ccccc12)NC(=O)[C@H](Cc1c[nH]c2ccccc12)NC(=O)[C@H](CCCNC(=N)N)NC(=O)[C@H](Cc1c[nH]c2ccccc12)NC(=O)[C@@H](N)CCCNC(=N)N)C(N)=O	Candida albicans	broth microdilution	56452, RPMI 1640-MOPS	48 h, 30 °C	–	MIC	8 µM
COc1cc(CCC[P+](c2ccccc2)(c2ccccc2)c2ccccc2)c(OC)c2c1OCO2.[I-]	M14	SRB	–	–	–	TGI	-4.86 log M
CC(C)C[C@H](NC(=O)CNC(=O)CNC(=O)CNC(=O)[C@H](Cc1ccc(O)cc1)NC(=O)[C@H](CC(C)C)NC(=O)[C@@H](NC(=O)CNC(=O)[C@H](Cc1ccc(O)cc1)NC(=O)[C@H](CCCCN)NC(=O)[C@H](CC(N)=O)NC(=O)[C@@H](NC(=O)[C@H](CCCCN)NC(=O)[C@H](Cc1c[nH]c2ccccc12)NC(=O)CN)[C@@H](C)O)[C@@H](C)O)C(=O)N[C@@H](CCCCN)C(=O)N[C@@H](CCCCN)C(=O)N[C@@H](CC(C)C)C(=O)N[C@@H](CC(C)C)C(=O)N[C@@H](CC(C)C)C(=O)N[C@@H](CC(C)C)C(=O)N[C@@H](CC(C)C)C(=O)N[C@@H](CCCCN)C(=O)N[C@@H](CCCCN)C(=O)N[C@@H](CC(C)C)C(=O)NCC(=O)O	Staphylococcus aureus	–	USA300	with: 1 mM MgCl2	–	MIC	32 µg/mL
CC[C@H](C)[C@H](NC(=O)[C@H](CCCCN)NC(=O)[C@H](CCCCN)NC(=O)[C@H](Cc1ccccc1)NC(=O)[C@@H](NC(=O)[C@@H](NC(=O)[C@H](CCCNC(=N)N)NC(=O)[C@H](Cc1ccccc1)NC(=O)[C@@H](NC(=O)[C@H](CCCCN)NC(=O)[C@H](CCCCN)NC(=O)[C@@H](N)CCSC)[C@@H](C)CC)C(C)C)[C@@H](C)CC)C(=O)N[C@@H](CC(C)C)C(=O)N[C@@H](CCCCN)C(=O)N[C@@H](CCCNC(=N)N)C(=O)N[C@@H](CC(C)C)C(=O)N[C@H](C(=O)N[C@H](C(=O)O)C(C)C)[C@@H](C)CC	Staphylococcus aureus	broth microdilution	ATCC 25923	compound pretreated with trypsin 1 h, with: trypsin 1 mg/mL	–	MIC	> 32 µg/mL
C[C@@H](O)[C@H]1C(=O)N2C(C(=O)O)=C(SCCN=CN)C[C@H]12	Klebsiella pneumoniae	–	KPC-2 parental strain K3(3201)	–	–	MIC	128 µg/mL
CC[C@H](C)[C@@H]1NC(=O)[C@@H]2CCCN2C(=O)[C@H](CC(C)C)NC(=O)[C@H](CC(C)C)NC(=O)CNC(=O)[C@@H](NC(=O)[C@@H](NC(=O)[C@H](CC(=O)O)NC(=O)CNC(=O)[C@@H](NC(=O)[C@H](C)NC(=O)CNC(=O)[C@H](CCCCN)NC(=O)[C@H](CC(C)C)NC(=O)[C@H](CC(C)C)NC(=O)[C@H](CCCCN)NC(=O)CNC(=O)[C@@H](NC(=O)[C@@H](N)CC(C)C)C(C)C)C(C)C)C(C)C)CSSC[C@@H](C(=O)O)NC1=O	–	RNA-seq, measured: Gpr141	mouse, traumatic brain injury model, frontal cortex and hippocampus	dose not given	relative to: TBI alone	log2 fold change	-3.25
CC[C@H](C)[C@H](NC(=O)CN)C(=O)NCC(=O)N[C@@H](C)C(=O)N[C@H](C(=O)N[C@@H](CC(C)C)C(=O)N[C@@H](CCCCN)C(=O)N[C@H](C(=O)N[C@@H](CC(C)C)C(=O)N[C@H](C(=O)N[C@H](C(=O)NCC(=O)N[C@@H](CC(C)C)C(=O)N1CCC[C@H]1C(=O)N[C@@H](C)C(=O)N[C@@H](CC(C)C)C(=O)N[C@H](C(=O)N[C@@H](CO)C(=O)N[C@@H](Cc1c[nH]c2ccccc12)C(=O)N[C@H](C(=O)N[C@@H](CCCCN)C(=O)N[C@@H](CCCNC(=N)N)C(=O)N[C@@H](CCCCN)C(=O)N[C@@H](CCCNC(=N)N)C(=O)N[C@@H](CCC(N)=O)C(=O)N[C@@H](CCC(N)=O)C(N)=O)[C@@H](C)CC)[C@@H](C)CC)[C@@H](C)O)[C@@H](C)O)C(C)C)C(C)C	Candida parapsilosis	broth microdilution	CGMCC 2.399, RPMI-1640	48 h, 30 °C	–	MIC	2 µM
C[C@@H](O)[C@H](NC(=O)[C@H](Cc1ccccc1)NC(=O)[C@H](Cc1c[nH]c2ccccc12)NC(=O)[C@H](Cc1ccccc1)NC(=O)[C@@H](NC(=O)[C@H](Cc1ccccc1)NC(=O)[C@H](CCCNC(=N)N)NC(=O)[C@@H](N)CCCNC(=N)N)[C@@H](C)O)C(=O)N[C@@H](Cc1ccccc1)C(=O)N[C@@H](CCCNC(=N)N)C(=O)N[C@@H](CCCNC(=N)N)C(N)=O	Candida parapsilosis	–	CGMCC 2.399	48 h, 37 °C	–	MIC	2 µM
CC(C)[C@H](NC(=O)[C@H](CCCNC(=N)N)NC(=O)[C@H](Cc1c[nH]c2ccccc12)NC(=O)[C@H](CCCNC(=N)N)NC(=O)[C@H](Cc1c[nH]c2ccccc12)NC(=O)[C@H](Cc1c[nH]c2ccccc12)NC(=O)[C@H](Cc1c[nH]c2ccccc12)NC(=O)[C@H](CCCNC(=N)N)NC(=O)[C@H](Cc1c[nH]c2ccccc12)NC(=O)[C@H](CCCNC(=N)N)NC(=O)CN)C(N)=O	Candida albicans	broth microdilution	SP3931, RPMI 1640-MOPS	48 h, 30 °C	–	MIC	8 µM

A few entries again:
Structure (SMILES)	target or system	test	system	setting	scale	quantity	result
COc1cc(CCC[P+](c2ccccc2)(c2ccccc2)c2ccccc2)c(OC)c2c1OCO2.[I-]	M14	SRB	–	–	–	TGI	-4.86 log M
CC(C)C[C@H](NC(=O)CNC(=O)CNC(=O)CNC(=O)[C@H](Cc1ccc(O)cc1)NC(=O)[C@H](CC(C)C)NC(=O)[C@@H](NC(=O)CNC(=O)[C@H](Cc1ccc(O)cc1)NC(=O)[C@H](CCCCN)NC(=O)[C@H](CC(N)=O)NC(=O)[C@@H](NC(=O)[C@H](CCCCN)NC(=O)[C@H](Cc1c[nH]c2ccccc12)NC(=O)CN)[C@@H](C)O)[C@@H](C)O)C(=O)N[C@@H](CCCCN)C(=O)N[C@@H](CCCCN)C(=O)N[C@@H](CC(C)C)C(=O)N[C@@H](CC(C)C)C(=O)N[C@@H](CC(C)C)C(=O)N[C@@H](CC(C)C)C(=O)N[C@@H](CC(C)C)C(=O)N[C@@H](CCCCN)C(=O)N[C@@H](CCCCN)C(=O)N[C@@H](CC(C)C)C(=O)NCC(=O)O	Staphylococcus aureus	–	USA300	with: 1 mM MgCl2	–	MIC	32 µg/mL
